Experimental data from different studies.
Parts stem from different laboratories: compare values within a part only.

Set 1
Target: RNA binding protein fox-1 homolog 2, RRM domain, GST-SBP tag (RBFOX2, Homo sapiens, UniProt O43251-10, residues 100-194)
Method: RNA Bind-n-Seq
Form: RNA
Sample: in vitro
Concentration: 365 nM
Setting: natural RNA segment, single round, ends assumed
Reference: no-protein control
Reading: higher = stronger binding
Endpoint: RBNS enrichment (R)
Construct (chain): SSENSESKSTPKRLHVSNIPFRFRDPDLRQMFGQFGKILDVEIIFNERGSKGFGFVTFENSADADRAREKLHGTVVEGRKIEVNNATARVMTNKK
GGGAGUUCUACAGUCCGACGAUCCUCAGCCUCCCAAAGUGCUGGGAUUACAGGCGUGAGCUAUCCCGCCCGGUCCCCUUUUCUUUAUUAUCGAAGAUAUUGUUUAAAAGAAAGAAAAAGUAGGUCCCAAUAAUUGGAAUUCUCGGGUGCCAA: 0.233
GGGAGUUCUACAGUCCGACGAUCCCCAGGAACUCGGAGACUGGCACAGCUGCUUUGUCUGCCAGUGCCGUGUGUUGUCAUGUCACUCACCCCAAGCACCUGCUGGCUGCUGGAAGCAUACCCCAAGACCCCAAUGGAAUUCUCGGGUGCCAA: 0.438
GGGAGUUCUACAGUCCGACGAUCUGUGUGAUCCUUCCCCUCCCUGUCGCCCACUCCUCCCUCCUCUGGCUAUCCUACCCUGUCUGUGGGCUCUUUUACUACCAGCCUAUGCUGUGGGACUGUCAUGGCAUUUAUGGAAUUCUCGGGUGCCAA: 0.619
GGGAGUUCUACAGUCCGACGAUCCUUGGGGAUUUUCCAUCUGACUUCCCUGGCCAUCUUAUCCCAUCCUUGCACUACCAGAAGAUUCAUACACUUUUGAGACUCCAGUGAGACGCUGUUUUCACCCCUUCCUCUGGAAUUCUCGGGUGCCAA: 0.666
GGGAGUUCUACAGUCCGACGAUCAUGGAACAGGCUGUGGCCCCUGAGUCAUCUGAAACCUUGACAGACAGUGAGACAAAUGGAAGUACUCCCCUCGCAGAUUCAGACACUCCAAACGGGACACAGCAAGACGAUGGAAUUCUCGGGUGCCAA: 0.595
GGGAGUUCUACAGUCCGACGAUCGCUCACUCCCCAAGCUUUAUGGAGCUUCCAGCAACAGCCAUGAACUUGAGGUUCCUUGAAUUUGCGAGGUGUGGAAAGACUACUUGACUGUCUGUCCAGCUUAGCUGUUAUGGAAUUCUCGGGUGCCAA: 0.346
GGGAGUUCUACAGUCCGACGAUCGAAGUCAGAACAGAAGGAGGACGCUGGAGGGCCUUGCUGGCUACCGCUAUCUAAAGGGAACCCCCAUUUCUGACCCAUUAGUAGUCUUGAAUGUGGGGCUCUGAGAUAAAUGGAAUUCUCGGGUGCCAA: 0.485
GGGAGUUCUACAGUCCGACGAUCCUCUAAAAGUGUGUCAUUUAGCGAAAACUUGAGAUUACAUUUCUUCCUGGGAGGAGUUAGAAGUAAUGGUUUAGUUCAGGCAGCUACACGUGCCUAUUUAUCCCUCGUUCUGGAAUUCUCGGGUGCCAA: 0.321
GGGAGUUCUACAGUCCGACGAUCGUGAGUACAUGCCCCAGAGAUGGUGGCCAAGCAGAGCAGUCACCCACAAGGCAGAGUUACUCGUGAGAAAGGGCAGCAGUGUUGUGUGCAUCUGUCAGUCAGGUUGUAUGUGGAAUUCUCGGGUGCCAA: 0.598
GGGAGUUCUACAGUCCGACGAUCGAACGGGGCCCAGGGGGAGGCAGGAGAGGAGGGUUCCGGUCCCAUGUCACCUUCUCAUUUGCUGUGUGACUUUGGCCCACUCACAUUCUCUUUGGGCCUCAGUUUUAUCAUGGAAUUCUCGGGUGCCAA: 0.497
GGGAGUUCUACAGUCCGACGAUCUGUUAGCCUUGGACUGAAGGGGUUUUAAGUUUUGAGGGGUAGGAAGAGAGUUACAGGAAUAGAGAACCUGUUUUUGAGACAUGUUGUCAUUUUGAUGAGAUAACCUUCAUUGGAAUUCUCGGGUGCCAA: 0.937
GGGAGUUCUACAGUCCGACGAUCCCUUCCUUACUUUUCAGGCGCAUAGCUAUUAGGGGCGACUAAUAGGAAAAAGCUCGCAUUUUCAUCGUGCCUCCUGGAGUAGAGAAAUGGGAACGCCUCUCCCCUCCUUGUGGAAUUCUCGGGUGCCAA: 0.573

Set 2
Target: Histone acetyltransferase KAT6A, winged helix 1, GST fusion (KAT6A, Homo sapiens, UniProt Q92794, residues 1-85)
Method: protein binding microarray
Form: double-stranded DNA, one strand shown
Sample: in vitro
Concentration: not given
Setting: 8-mer, flanks averaged, mean of 2 arrays, mostly near background
Reference: not given
Reading: higher = stronger binding
Endpoint: E-score
Residues (chain): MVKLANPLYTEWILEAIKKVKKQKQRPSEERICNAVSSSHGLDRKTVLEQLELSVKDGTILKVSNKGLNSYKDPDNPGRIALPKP
AATACGCG: 0.211
AAAACAAC: -0.168
AAGGAGAC: -0.146
AAGCGGAA: 0.215
ACAAATTA: 0.0473
CCTAGACA: -0.0856
ATCACTCC: -0.152
CTGCTCAA: -0.264
ATCTGTTA: -0.217
AAGAGTAC: -0.097
ATGACTTA: -0.229
GGGAGAAC: -0.109
CTTCGGTC: -0.113
CTGGGTAA: -0.183
ATTGTAAC: -0.00108
CATGATGC: 0.0292
AGCTAACG: -0.0464
AAATTAAA: -0.0726
AGTTCCAA: -0.277
TCGTGAGA: 0.0819
ATCCTAGG: -0.0872
ATCTCCGG: 0.123
CGGACCAA: 0.0114
AAAATGAC: -0.143
ACTTGAGA: -0.177

Set 3
Target: Phosphate system positive regulatory protein PHO4, full length, GST-tagged (PHO4, Saccharomyces cerevisiae, UniProt P07270, residues 1-312)
Method: competition protein-binding microarray
Form: double-stranded DNA, one strand shown
Sample: in vitro
Concentration: 2 µM
Setting: whole 60-bp probe, lowest competitor level
With: Cbf1 competitor, 0.05 µM
Reading: higher = stronger binding
Endpoint: fluorescence intensity
Target sequence (chain): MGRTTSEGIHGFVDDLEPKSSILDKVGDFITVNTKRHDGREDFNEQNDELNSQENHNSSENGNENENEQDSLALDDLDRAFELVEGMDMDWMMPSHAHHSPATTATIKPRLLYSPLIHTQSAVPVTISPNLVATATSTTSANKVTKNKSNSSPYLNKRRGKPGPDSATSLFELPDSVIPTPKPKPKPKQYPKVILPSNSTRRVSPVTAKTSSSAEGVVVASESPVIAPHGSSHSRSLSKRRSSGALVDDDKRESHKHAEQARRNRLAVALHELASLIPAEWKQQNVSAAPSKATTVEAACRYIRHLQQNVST
ACCAGAAAAAAAACACACGTGATGGCCACCAGGAGCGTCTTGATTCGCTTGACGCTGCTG: 15800 a.u.
TTCGAGACGAAGCATCACCTGATGGTAAACTATTGTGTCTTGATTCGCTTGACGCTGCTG: 3850 a.u.
CTTTCCCGATCTTGACAAGTGGGTGTAGCACATTTGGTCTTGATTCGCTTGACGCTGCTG: 4910 a.u.
AAATTACTAAGTTGAGGGGTGGGTGACGCCGTATGAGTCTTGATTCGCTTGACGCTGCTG: 4590 a.u.
AAATTACTAAGTTGAAGAGTGGGTGACGCCGTATGAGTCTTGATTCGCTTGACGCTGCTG: 3690 a.u.
GACCTTATCAAAAAGCACGCTGCCGGCCAAGAAGTGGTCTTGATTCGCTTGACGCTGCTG: 8530 a.u.
GTCTTGTCTCATTGTTGTGTGGGTGTCCCCACTTCAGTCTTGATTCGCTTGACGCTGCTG: 5520 a.u.
GCAATCCGAGCTTGACACATGGTTTCTGGAGGTCTGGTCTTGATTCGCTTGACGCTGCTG: 7220 a.u.
AATGAAGACCGGGAATTCGTGCCGAGTTCGAGTTTGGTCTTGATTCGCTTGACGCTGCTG: 5270 a.u.
CGGATGCTGTTACTACACGTGAACCATCCGGAGAGTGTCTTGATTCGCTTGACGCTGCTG: 14400 a.u.
GCGCAATACGTTAAGCTCGTGCTTTAGGTTTCGCCGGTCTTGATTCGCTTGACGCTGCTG: 11500 a.u.
CGTCCTAGTGATTGGGCAGTGGGTGCCATGAGGAAGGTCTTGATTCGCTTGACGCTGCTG: 7590 a.u.
GTCTTGTCTCATTGTGGCGTGGGTGTCCCCACTTCAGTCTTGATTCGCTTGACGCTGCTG: 7860 a.u.
TATGCGATGAATACGCACATGGGCTCTCCTGGCGGAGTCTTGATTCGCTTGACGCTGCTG: 11200 a.u.
AAAATCTGCGATTGTCATGCCTCCAAGACTGATGTTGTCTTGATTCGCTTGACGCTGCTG: 4160 a.u.
CGTCCTAGTGATTGTCACAGGACTTCCATGAGGAAGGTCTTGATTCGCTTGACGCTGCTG: 4300 a.u.
GAATGAGTTACTGGTCCCGTGAAGCGATTGACACAAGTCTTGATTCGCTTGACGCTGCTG: 4090 a.u.
CTAACGAAGGTTTGATCCGTGGGTGACAAGCCAAGTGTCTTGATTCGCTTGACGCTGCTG: 4980 a.u.
AAATTACTAAGTTGCTTTGTGGGTGACGCCGTATGAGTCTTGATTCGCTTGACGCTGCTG: 3790 a.u.
GGCTCGCGCTAGAATCGTGTGCAGCAGCTCCACATCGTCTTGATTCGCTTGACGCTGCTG: 6280 a.u.
GGTCGCACACACACCCCCGTGATGGGCGATATATAGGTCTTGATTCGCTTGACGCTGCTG: 9820 a.u.
CGGGGTTAAGTTTTTCACGTGTGTTGCTTGCAGCAGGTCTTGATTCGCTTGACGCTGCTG: 13000 a.u.
CCTTAACGCAATCGGTGTGTGATATTGCTCTAAGGTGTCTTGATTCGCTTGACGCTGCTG: 5730 a.u.

Set 4
Target: Interferon regulatory factor 3, full length, phosphomimetic (IRF3, Homo sapiens, UniProt Q14653, residues 1-427, S386D/S396D/S398D/S402D/T404D/S405D)
Chain of UniProt Q14653 (whole entry, unmodified, looked up): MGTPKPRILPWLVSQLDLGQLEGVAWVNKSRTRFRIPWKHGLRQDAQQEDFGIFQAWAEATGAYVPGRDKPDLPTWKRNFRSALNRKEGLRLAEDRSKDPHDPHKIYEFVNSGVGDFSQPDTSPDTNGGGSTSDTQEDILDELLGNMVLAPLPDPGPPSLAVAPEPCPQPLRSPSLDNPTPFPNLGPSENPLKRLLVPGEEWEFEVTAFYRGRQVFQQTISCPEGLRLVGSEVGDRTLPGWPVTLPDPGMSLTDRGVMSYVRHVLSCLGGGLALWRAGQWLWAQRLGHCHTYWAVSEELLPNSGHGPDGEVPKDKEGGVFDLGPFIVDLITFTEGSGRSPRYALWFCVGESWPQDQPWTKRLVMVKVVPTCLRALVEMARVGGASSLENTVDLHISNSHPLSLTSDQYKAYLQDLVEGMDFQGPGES
Method: protein-binding microarray
Form: double-stranded DNA, one strand shown
Sample: in vitro
Concentration: 2540 nM top
Setting: 60-bp whole probe
With: salmon DNA 0.4 mg/ml
Reference: random background probes
Reading: higher = stronger binding
Endpoint: fitted relative affinity
Constant ends, left off below: GCCTAGCAC … GTCTTGATTCGCTTGACGCTGCTG
TCAATATTCACTATAGTACTGTGCTAG: 0.598 z-score
TTAGATTGCAGTTCCGATTAGTGCTAG: 2.23 z-score
GACGGTCTCGGTCTCGGTACGTGCTAG: 1.65 z-score
GAATGATTACATATATGTTGGTGCTAG: 0.41 z-score
AACGATTTCAGACTGGAGACGTGCTAG: 0.643 z-score
TTAGTTTCCAGTTTCGATTAGTGCTAG: 8.19 z-score
GACGATTCCAGTTTCCAGACGTGCTAG: 3.95 z-score
TCACATATGCTTTTTAGACTGTGCTAG: 0.852 z-score
TCATTAATCACATATACAACTGTGCTA: 0.556 z-score
GACGGACTGGACACCGGGGACGTGCTA: -0.806 z-score
TTAGGGATCGACTTTCGGTTAGTGCTA: 1.24 z-score
TTAGATCTCAGTCTCAATTAGTGCTAG: 0.56 z-score
GACGATTTCAGGATCGAGACGTGCTAG: 1.5 z-score
TTAGGACTGGACGATCGGTTAGTGCTA: -0.394 z-score
TTAGGTATCGGTTTCGGTGAGTGCTAG: 7.16 z-score
GGCGGTCTCGGTATCGGGACGTGCTAG: 1.6 z-score
TCATTTTTTAGCTTCTCACTGTGCTAG: 1.09 z-score
GACGATAACGGGTTTCGAGACGTGCTA: 0.584 z-score
TCATCTTTATGCACTCTTACTGTGCTA: 1.01 z-score
GACGATTCCAGTGTCGAGACGTGCTAG: 0.484 z-score
TTATGTCTCCTACTGCTTTAGTGCTAG: 1.17 z-score
TCAATTCTGCTTTGCAAACTGTGCTAG: 0.518 z-score
GCTGGGTTTTCTTGGCACAGGTGCTAG: -0.533 z-score
CCAGGGCTGCCAGCCTCCTCGTGCTAG: -0.909 z-score
CTGGCTGGGGTGGTGGCAGTGTGCTAG: -1.49 z-score

Set 5
Target: Sal-like protein 4, full length isoform A (SALL4, Homo sapiens, UniProt Q9UJQ4, residues 1-1053)
Chain of UniProt Q9UJQ4 (whole entry, looked up): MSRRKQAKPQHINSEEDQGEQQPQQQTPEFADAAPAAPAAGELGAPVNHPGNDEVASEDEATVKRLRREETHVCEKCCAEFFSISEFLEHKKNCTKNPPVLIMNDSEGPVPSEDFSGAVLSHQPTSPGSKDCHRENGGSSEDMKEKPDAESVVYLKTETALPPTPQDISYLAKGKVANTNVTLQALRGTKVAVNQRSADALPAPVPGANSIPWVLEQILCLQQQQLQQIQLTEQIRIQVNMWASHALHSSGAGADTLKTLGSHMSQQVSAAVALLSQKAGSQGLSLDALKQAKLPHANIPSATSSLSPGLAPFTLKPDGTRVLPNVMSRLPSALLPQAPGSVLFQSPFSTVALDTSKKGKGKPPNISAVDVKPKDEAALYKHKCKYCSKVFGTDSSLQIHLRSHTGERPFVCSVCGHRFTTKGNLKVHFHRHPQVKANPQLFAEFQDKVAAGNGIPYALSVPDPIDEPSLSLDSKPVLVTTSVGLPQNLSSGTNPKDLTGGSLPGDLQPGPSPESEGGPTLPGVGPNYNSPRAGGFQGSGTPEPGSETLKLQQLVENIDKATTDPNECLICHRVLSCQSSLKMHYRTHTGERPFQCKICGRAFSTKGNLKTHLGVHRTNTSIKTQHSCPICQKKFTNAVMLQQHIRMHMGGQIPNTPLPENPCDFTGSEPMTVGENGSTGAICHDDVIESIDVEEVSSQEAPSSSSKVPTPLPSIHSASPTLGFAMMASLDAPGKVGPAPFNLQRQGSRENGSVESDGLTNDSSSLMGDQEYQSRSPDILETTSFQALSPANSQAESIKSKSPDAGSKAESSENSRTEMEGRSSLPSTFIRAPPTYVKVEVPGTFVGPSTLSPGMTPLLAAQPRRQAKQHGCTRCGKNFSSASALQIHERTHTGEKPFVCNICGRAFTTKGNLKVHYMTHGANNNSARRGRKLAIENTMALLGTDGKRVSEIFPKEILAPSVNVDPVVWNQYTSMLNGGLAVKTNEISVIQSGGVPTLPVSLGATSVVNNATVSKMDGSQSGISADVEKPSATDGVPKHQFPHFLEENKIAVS
Method: universal PBM
Form: double-stranded DNA, one strand shown
Sample: in vitro
Concentration: 600 nM
Setting: 8-mer, flanks averaged, mean of replicates
Reading: higher = stronger binding
Endpoint: E-score
CATTGTAG: 0.0903
CGAAAAGA: 0.0851
GAGACTAC: -0.126
AATCCCTA: -0.0588
CCTTACAC: -0.0781
CGGAGACC: -0.243
AGCGATGG: -0.279
GCTCACAA: 0.0249
CGGCCGCC: -0.339
ACTGCGAA: -0.0209
GGCCGTTA: -0.0345
CCCCCGAC: -0.15
CTACCATA: 0.131
TCTAAACA: 0.243
TAGGCAGA: 0.158
CTTTAAGA: 0.104
CTGTAGTA: 0.254
GTGATCGA: 0.0697
ACGCTTCG: -0.159

Excerpt of the above (set 4):
GACGATTCCAGTTTCCAGACGTGCTAG: 3.95 z-score
TCACATATGCTTTTTAGACTGTGCTAG: 0.852 z-score
TCATTAATCACATATACAACTGTGCTA: 0.556 z-score
GACGGACTGGACACCGGGGACGTGCTA: -0.806 z-score
TTAGGGATCGACTTTCGGTTAGTGCTA: 1.24 z-score
TTAGATCTCAGTCTCAATTAGTGCTAG: 0.56 z-score
GACGATTTCAGGATCGAGACGTGCTAG: 1.5 z-score
TTAGGACTGGACGATCGGTTAGTGCTA: -0.394 z-score
TTAGGTATCGGTTTCGGTGAGTGCTAG: 7.16 z-score
GGCGGTCTCGGTATCGGGACGTGCTAG: 1.6 z-score
TCATTTTTTAGCTTCTCACTGTGCTAG: 1.09 z-score
GACGATAACGGGTTTCGAGACGTGCTA: 0.584 z-score
